# Literature values as cited in several papers.
# Compare with care: the assays were run in different laboratories.
# Chain of UniProt Q9UM73 (whole entry, looked up): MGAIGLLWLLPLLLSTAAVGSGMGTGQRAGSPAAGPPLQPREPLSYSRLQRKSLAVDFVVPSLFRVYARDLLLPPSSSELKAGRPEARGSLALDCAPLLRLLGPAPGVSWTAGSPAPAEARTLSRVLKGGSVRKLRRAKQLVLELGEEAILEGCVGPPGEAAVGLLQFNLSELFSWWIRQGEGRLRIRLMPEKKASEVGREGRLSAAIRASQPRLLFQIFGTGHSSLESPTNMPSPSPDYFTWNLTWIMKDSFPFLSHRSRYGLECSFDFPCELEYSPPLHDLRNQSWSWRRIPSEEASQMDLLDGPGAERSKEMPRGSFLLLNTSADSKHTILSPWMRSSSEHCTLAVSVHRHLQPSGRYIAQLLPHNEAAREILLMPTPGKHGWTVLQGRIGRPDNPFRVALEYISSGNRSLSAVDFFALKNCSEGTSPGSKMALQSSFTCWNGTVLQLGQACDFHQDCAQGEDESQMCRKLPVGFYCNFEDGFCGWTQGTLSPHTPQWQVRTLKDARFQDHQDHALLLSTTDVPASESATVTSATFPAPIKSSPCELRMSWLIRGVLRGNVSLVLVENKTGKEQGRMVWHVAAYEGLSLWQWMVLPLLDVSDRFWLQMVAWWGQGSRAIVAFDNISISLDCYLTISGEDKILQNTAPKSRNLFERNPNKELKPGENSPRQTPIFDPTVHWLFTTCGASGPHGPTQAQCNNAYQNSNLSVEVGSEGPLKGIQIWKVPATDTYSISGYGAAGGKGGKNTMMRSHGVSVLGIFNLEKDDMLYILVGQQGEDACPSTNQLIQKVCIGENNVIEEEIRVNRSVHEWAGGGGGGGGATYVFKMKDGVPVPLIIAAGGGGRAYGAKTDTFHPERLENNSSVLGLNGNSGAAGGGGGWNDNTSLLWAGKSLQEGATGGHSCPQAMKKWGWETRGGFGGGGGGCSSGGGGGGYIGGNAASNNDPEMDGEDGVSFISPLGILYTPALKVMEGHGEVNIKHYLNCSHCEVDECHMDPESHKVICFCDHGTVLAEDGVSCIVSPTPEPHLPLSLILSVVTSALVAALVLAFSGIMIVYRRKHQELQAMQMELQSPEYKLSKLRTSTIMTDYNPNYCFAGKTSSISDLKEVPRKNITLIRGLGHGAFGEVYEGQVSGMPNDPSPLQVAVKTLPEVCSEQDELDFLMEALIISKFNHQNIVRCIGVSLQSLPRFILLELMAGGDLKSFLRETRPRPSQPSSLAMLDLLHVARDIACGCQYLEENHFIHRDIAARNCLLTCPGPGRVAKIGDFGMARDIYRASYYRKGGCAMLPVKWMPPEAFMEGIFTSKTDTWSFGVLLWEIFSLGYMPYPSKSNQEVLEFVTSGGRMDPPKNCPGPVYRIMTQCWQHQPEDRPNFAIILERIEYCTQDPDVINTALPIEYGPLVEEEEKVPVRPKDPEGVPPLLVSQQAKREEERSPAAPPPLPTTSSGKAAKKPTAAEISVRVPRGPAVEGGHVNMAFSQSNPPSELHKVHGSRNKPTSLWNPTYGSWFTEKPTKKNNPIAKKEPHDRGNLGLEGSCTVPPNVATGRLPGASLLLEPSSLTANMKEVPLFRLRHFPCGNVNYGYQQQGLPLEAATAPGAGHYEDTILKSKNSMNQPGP
SMILES,target or system,assay,test system,conditions,scale,quantity,value
Nc1cc(C(F)(F)F)c(-c2nc(N3CCOCC3)nc(N3CCOCC3)n2)cn1,"ALK tyrosine kinase receptor (ALK, Homo sapiens, UniProt Q9UM73)",enzyme activity,,10 µM,relative to: untreated,remaining activity,94%
CCCCCCc1ccc(Oc2ccccc2Cl)c(O)c1,Mycobacterium tuberculosis,,H37Rv,,,MIC,1.57 µg/mL
CNC(C)C1CCC(N)C(OC2C(N)CC(N)C(OC3OCC(C)(O)C(NC)C3O)C2O)O1 (centres unmarked),Acinetobacter baumannii,,clinical isolate RKI-No_272/16,,,MIC,> 8 µg/mL
CN[C@H](CC(C)C)C(=O)N[C@H]1C(=O)N[C@@H](CC(N)=O)C(=O)N[C@H]2C(=O)N[C@H]3C(=O)N[C@H](C(=O)N[C@H](C(=O)O)c4cc(O)cc(O)c4-c4cc3ccc4O)[C@H](O)c3ccc(c(Cl)c3)Oc3cc2cc(c3O[C@@H]2O[C@H](CO)[C@@H](O)[C@H](O)[C@H]2O[C@H]2C[C@](C)(N)[C@H](O)[C@H](C)O2)Oc2ccc(cc2Cl)[C@H]1O,Streptococcus pneumoniae,,NBRC 102642,,,MIC,0.34 µM
C[C@H]1COCCN1c1nc(-c2cnc(N)cc2C(F)F)nc(N2CCOCC2)n1,MIA PaCa-2 cells,cell growth,,,,GI50,885 nM
CC1(C)S[C@@H]2[C@H](NC(=O)[C@H](N)c3ccccc3)C(=O)N2[C@H]1C(=O)O,Pseudomonas aeruginosa,,clinical isolate RKI-No_627/13,,,MIC,> 16 µg/mL
FC(F)(F)c1ccc(Oc2ccc(-c3noc(-c4ccc5[nH]ccc5c4)n3)cc2)cc1,Lactobacillus gasseri,,HM-644,,,MIC,> 128 µg/mL
CC(C)(O/N=C(\C(=O)N[C@@H]1C(=O)N2C(C(=O)[O-])=C(C[n+]3ccccc3)CS[C@H]12)c1csc(N)n1)C(=O)O,Klebsiella pneumoniae,,clinical isolate RKI-No_95/16,,,MIC,≤ 2 µg/mL
CCc1c(Cl)c(O)c(Cl)c(O)c1C(=O)O[C@H]1[C@H](O)[C@H](OC)[C@H](OC/C2=C\C=C\C[C@H](O)/C(C)=C/[C@H](CC)[C@@H](O[C@@H]3OC(C)(C)[C@@H](OC(=O)C(C)C)[C@H](O)[C@@H]3O)/C(C)=C/C(C)=C/C[C@@H]([C@@H](C)O)OC2=O)O[C@@H]1C,Clostridioides difficile,,23828 resistant clinical isolate,,,MIC,> 8 µg/mL
O=C(c1cc(-c2ccccc2O)on1)N1CCN(C(c2ccccc2)c2ccccc2)CC1,Plasmodium falciparum,whole cell extended time,3D7,72 h,,IC50,340 nM
CCc1c(Cl)c(O)c(Cl)c(O)c1C(=O)O[C@H]1[C@H](O)[C@H](OC)[C@H](OC/C2=C\C=C\C[C@H](O)/C(C)=C/[C@H](CC)[C@@H](O[C@@H]3OC(C)(C)[C@@H](OC(=O)C(C)C)[C@H](O)[C@@H]3O)/C(C)=C/C(C)=C/C[C@@H]([C@@H](C)O)OC2=O)O[C@@H]1C,Bacteroides sp.,,HM-709,,,MIC,> 32 µg/mL
CC1(C)S[C@@H]2[C@H](NC(=O)[C@H](N)c3ccccc3)C(=O)N2[C@H]1C(=O)O,Streptococcus dysgalactiae,,,,,MIC,0.06 to 4 µg/mL
Oc1ccc(-c2nc(-c3ccc(OC4CCCC4)cc3)no2)cc1,Lactobacillus gasseri,,HM-644,,,MIC,> 128 µg/mL
O=C(Nc1cccc(-c2cccc(-c3nc4ccccc4[nH]3)c2)c1)NC1CC1c1ccccc1 (centres unmarked),Plasmodium falciparum,whole cell extended time,3D7,72 h,,IC50,1070 nM
